# Experimental data pooled from the literature.
# Each numbered part is a random draw from the data of one study; scales do not carry over between parts.
# UniProt Q00526, sequence (whole entry, looked up): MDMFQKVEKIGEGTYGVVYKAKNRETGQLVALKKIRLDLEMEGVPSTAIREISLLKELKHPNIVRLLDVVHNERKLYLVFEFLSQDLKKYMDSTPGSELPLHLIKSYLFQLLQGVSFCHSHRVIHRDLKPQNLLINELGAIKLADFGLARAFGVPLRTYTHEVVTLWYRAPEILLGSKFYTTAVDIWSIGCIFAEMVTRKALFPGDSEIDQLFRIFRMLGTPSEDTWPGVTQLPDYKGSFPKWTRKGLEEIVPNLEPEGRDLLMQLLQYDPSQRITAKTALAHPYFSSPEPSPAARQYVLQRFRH
# UniProt Q86Y07, sequence (whole entry, looked up): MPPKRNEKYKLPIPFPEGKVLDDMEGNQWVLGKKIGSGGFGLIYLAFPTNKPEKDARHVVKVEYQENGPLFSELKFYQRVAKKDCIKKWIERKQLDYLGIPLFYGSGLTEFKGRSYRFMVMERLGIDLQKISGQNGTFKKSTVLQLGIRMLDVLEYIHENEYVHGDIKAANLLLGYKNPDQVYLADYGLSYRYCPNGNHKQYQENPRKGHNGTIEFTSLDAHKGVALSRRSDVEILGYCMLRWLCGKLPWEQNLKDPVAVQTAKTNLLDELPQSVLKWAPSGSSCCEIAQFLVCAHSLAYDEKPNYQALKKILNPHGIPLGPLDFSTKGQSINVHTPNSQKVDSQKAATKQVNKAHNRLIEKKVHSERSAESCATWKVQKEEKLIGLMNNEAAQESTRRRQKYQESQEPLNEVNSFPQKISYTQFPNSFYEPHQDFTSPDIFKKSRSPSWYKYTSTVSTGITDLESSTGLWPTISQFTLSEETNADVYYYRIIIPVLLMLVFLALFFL
# UniProt Q6P3R8, sequence (whole entry, looked up): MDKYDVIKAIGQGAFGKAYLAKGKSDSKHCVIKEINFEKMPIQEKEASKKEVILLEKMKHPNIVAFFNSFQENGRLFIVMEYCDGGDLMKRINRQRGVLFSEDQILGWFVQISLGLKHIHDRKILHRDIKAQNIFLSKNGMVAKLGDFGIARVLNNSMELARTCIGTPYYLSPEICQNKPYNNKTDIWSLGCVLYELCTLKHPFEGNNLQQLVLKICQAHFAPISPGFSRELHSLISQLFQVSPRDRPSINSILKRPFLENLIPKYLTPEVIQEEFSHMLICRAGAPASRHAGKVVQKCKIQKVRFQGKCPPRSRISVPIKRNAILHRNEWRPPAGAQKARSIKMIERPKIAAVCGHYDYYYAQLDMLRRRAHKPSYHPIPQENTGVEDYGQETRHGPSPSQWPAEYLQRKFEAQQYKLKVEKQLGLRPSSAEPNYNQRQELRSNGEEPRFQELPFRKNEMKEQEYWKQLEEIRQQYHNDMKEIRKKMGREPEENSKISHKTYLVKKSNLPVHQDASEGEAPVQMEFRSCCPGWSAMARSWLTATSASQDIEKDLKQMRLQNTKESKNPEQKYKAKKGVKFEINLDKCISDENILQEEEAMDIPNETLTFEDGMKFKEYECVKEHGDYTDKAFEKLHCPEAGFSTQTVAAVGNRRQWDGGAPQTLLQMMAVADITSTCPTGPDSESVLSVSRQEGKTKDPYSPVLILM
# UniProt Q9UKE5, sequence (whole entry, looked up): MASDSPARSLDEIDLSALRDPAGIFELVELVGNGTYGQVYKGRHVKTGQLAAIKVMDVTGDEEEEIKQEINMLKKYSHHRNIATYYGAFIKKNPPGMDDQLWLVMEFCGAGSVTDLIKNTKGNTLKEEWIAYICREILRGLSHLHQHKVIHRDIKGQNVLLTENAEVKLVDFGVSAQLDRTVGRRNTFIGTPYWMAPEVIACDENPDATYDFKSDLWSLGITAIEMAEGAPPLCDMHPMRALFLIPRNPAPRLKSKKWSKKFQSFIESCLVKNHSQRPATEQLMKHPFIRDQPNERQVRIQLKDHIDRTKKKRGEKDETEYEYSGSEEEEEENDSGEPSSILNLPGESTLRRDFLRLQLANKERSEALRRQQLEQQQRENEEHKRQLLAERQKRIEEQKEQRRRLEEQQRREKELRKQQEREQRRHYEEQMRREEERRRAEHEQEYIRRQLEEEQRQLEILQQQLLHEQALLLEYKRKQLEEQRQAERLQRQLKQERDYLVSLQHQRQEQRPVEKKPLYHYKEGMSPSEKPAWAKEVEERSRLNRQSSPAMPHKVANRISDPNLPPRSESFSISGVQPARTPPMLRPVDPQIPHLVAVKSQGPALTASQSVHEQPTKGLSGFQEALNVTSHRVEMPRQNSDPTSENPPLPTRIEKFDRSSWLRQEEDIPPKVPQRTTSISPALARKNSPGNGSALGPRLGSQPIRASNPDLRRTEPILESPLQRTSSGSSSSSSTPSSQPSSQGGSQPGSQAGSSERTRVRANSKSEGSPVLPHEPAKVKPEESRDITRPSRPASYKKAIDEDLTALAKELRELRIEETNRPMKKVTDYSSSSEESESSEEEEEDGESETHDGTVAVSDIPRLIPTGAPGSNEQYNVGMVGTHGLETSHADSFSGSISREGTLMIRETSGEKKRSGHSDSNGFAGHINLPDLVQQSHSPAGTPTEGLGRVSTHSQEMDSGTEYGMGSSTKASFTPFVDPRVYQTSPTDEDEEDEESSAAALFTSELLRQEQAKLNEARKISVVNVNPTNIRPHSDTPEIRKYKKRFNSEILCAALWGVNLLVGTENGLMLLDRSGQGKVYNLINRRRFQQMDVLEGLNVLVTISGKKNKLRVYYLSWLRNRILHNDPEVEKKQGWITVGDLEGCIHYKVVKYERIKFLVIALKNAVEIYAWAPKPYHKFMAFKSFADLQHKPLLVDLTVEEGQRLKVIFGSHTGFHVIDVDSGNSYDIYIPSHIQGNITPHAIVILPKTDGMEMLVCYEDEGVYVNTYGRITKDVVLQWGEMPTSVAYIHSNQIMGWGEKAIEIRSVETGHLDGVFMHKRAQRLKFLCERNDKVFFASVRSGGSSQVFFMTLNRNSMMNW
# UniProt Q9HAZ1, sequence (whole entry, looked up): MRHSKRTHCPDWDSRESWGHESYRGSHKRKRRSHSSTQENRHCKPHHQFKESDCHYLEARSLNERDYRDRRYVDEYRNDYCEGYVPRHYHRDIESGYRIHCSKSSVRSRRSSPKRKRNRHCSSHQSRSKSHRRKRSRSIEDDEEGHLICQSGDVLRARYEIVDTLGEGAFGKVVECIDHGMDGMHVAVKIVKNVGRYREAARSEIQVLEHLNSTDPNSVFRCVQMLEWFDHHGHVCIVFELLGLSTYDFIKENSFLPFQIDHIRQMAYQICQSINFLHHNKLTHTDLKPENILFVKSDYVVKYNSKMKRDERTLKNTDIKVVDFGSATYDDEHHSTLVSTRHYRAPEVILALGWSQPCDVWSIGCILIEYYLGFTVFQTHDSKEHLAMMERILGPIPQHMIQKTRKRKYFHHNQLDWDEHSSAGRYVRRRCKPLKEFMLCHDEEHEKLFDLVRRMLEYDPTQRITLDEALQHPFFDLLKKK
# UniProt Q99759, sequence (whole entry, looked up): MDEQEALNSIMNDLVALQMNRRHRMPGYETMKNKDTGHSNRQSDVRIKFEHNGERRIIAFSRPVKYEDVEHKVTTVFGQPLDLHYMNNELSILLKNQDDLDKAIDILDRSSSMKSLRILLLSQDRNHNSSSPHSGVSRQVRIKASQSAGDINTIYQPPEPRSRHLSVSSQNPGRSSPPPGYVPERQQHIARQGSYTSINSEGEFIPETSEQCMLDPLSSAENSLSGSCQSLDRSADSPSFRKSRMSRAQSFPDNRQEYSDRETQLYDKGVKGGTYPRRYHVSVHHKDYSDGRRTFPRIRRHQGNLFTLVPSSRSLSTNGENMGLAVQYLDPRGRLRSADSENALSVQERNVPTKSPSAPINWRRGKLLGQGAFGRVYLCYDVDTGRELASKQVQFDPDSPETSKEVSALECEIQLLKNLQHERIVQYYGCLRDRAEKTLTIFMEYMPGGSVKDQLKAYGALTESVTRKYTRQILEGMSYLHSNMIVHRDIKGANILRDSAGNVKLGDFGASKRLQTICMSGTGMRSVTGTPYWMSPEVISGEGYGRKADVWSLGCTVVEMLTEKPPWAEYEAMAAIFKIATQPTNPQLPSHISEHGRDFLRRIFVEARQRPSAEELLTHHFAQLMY
# UniProt Q15349, sequence (whole entry, looked up): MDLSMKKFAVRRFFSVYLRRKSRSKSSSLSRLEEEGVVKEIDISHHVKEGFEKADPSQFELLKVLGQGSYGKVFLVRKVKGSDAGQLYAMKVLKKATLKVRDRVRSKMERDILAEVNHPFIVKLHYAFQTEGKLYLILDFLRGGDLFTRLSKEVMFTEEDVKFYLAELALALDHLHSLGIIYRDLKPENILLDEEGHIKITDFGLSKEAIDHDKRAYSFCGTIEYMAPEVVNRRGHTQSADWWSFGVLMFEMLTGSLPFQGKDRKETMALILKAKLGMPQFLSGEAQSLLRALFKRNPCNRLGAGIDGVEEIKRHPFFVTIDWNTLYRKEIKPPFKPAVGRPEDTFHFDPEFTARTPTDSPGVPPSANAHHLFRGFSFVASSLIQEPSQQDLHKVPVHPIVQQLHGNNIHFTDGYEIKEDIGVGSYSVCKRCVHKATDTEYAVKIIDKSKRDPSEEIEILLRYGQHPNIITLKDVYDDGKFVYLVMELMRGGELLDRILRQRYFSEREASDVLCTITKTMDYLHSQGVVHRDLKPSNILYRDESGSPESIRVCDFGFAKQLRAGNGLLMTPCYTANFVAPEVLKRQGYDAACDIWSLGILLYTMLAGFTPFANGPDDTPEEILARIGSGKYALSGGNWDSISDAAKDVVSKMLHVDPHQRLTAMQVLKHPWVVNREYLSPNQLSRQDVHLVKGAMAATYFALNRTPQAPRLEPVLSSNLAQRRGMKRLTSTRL

# Set 1 — observed: kinase activity; mode: inhibitor; tested at: 1 µM
# Compound: CC(C)S(=O)(=O)c1ccc2nccc(Nc3ccc4sc(C5CCCC5)nc4c3)c2c1.Cl
target,remaining activity [%]
"PKN1 (Homo sapiens, UniProt Q16512)",93
"MAPK9 (Homo sapiens, UniProt P45984)",89
"MAP3K3 (Homo sapiens, UniProt Q99759)",104
"CDK14 (Homo sapiens, UniProt O94921)",107
"MARK2 (Homo sapiens, UniProt Q7KZI7)",95
"ULK1 (Homo sapiens, UniProt O75385)",94
"TNIK (Homo sapiens, UniProt Q9UKE5)",80

# Set 2 — cell line: HuT78; method: RNA-seq; tested at: concentration not given; relative to: untreated control
# SMILES: CN1CC[C@H](c2c(O)cc(O)c3c(=O)cc(-c4ccccc4Cl)oc23)[C@H](O)C1
item,log2 fold change
AKAP5,0.667
CCDC191,0.886
AGBL2,1.11

# Set 3 — cell line: HaCaT; tested at: 100 µM; time: 36 h
SMILES,viability
COc1cc2ccc(=O)oc2cc1O,96.3%
N[C@@H](CSCCCO)C(=O)O,94.9%
CCCC(C(=O)OCCN(CC)CC)(c1ccccc1)c1ccccc1,5.42%
NCCC(O)(P(=O)(O)O)P(=O)(O)O,10.4%
O=c1[nH]c(=O)n([C@H]2C[C@H](O)[C@@H](CO)O2)cc1C(F)(F)F,43.8%
Cc1ccc(S(=O)(=O)NC(=O)NN2CCCCCC2)cc1,20%
CC(=O)N[C@@H](CS)C(=O)O,96%
O=C(O)Cc1ccc(-c2ccccc2)cc1,99.3%

# Set 4 — observed: cell-free assay; method: competition with immobilised ligand; tested at: 1 µM
# SMILES: CNCc1ccccc1-c1csc([C@H](C)Nc2nc(C)nc3cc(OC)c(OC)cc23)c1
target,remaining binding [%]
"VRK2 (Homo sapiens, UniProt Q86Y07)",73
"CDC42BPA (Homo sapiens, UniProt Q5VT25)",92
"CDK11A (Homo sapiens, UniProt Q9UQ88)",100
"TEC (Homo sapiens, UniProt P42680)",100
"Ribosomal protein S6 kinase alpha-2, N-terminal kinase domain (RPS6KA2, Homo sapiens, UniProt Q15349)",100
"WNK4 (Homo sapiens, UniProt Q96J92)",90
"CLK4 (Homo sapiens, UniProt Q9HAZ1)",100
"TGFBR1 (Homo sapiens, UniProt P36897)",80
"NEK5 (Homo sapiens, UniProt Q6P3R8)",100
"Tyrosine-protein kinase ABL1, phosphorylated (ABL1, Homo sapiens, UniProt P00519, Y253F)",94
"AKT2 (Homo sapiens, UniProt P31751)",90
"MET (Homo sapiens, UniProt P08581, Y1235D)",98
"CDK3 (Homo sapiens, UniProt Q00526)",100

# Excerpt of the above (set 4):
target,remaining binding [%]
"AKT2 (Homo sapiens, UniProt P31751)",90
"CLK4 (Homo sapiens, UniProt Q9HAZ1)",100
"VRK2 (Homo sapiens, UniProt Q86Y07)",73
"Ribosomal protein S6 kinase alpha-2, N-terminal kinase domain (RPS6KA2, Homo sapiens, UniProt Q15349)",100
